Published values of several laboratories.
Each numbered part is a random draw from the data of one study; scales do not carry over between parts.

Sample 1
Target: Replicase polyprotein 1ab, nsp13 helicase (rep, Severe acute respiratory syndrome coronavirus 2, UniProt P0DTD1)
Mode: inhibitor
Concentration: 20 µM
Structure (SMILES) | inhibition
O=C(O)CCc1cc(C(=O)c2ccc(OC3CCCC3)cc2O)ccc1OCc1ccc2c(=O)[nH]oc2c1 | -2.57%
NCC(=O)CCC(=O)O | 6.93%
CN(C(=O)/C=C/c1ccoc1)[C@@H]1CC[C@@]2(O)[C@H]3Cc4ccc(O)c5c4[C@@]2(CCN3CC2CC2)[C@H]1O5 | 2.87%
COc1ccc(Cl)c(Nc2ncnc3cc(OCC4CCN(C)CC4)c(OC)cc23)c1 | 0.65%
CO/N=C(\C(=O)N[C@@H]1C(=O)N2C(C(=O)O)=C(COC(N)=O)CS[C@H]12)c1ccco1 | 2.81%
CN(C)c1ccc(-c2nc3ncc(Cl)c(N4CCN(CC(=O)Nc5nccs5)CC4)c3[nH]2)cc1 | 7.4%
C/C(=N\NC(=S)NNC(=S)Nc1ccccc1Cl)c1ccccn1 | 3.28%
CC(C)=CCC[C@](C)(O)[C@@H]1CC=C(C)CC1 | 3.67%
O=C(O)C(O)=Cc1c[nH]c2ccccc12 | 2.66%
NC1CCN(c2c(F)cc3c(=O)c(C(=O)O)cn(C4CC4)c3c2Cl)C1 (stereo not shown) | 1.14%
CCS(=O)(=O)CCn1c([N+](=O)[O-])cnc1C | 5.17%
CO[C@H]1/C=C/O[C@@]2(C)Oc3c(C)c(O)c4c(O)c(c5c(nc6cc(C)ccn65)c4c3C2=O)NC(=O)/C(C)=C\C=C\[C@H](C)[C@H](O)[C@@H](C)[C@@H](O)[C@@H](C)[C@H](OC(C)=O)[C@@H]1C | 4.2%
CC(C)c1ccc(CC(=O)N2CCC[C@@H](c3cccc(OC(C)(C)C(=O)O)c3)C2)cc1 | 1.87%
COc1cc2c(cc1OC)[C@@]13CCN4CC5=CCO[C@H]6CC(=O)N2[C@H]1[C@H]6[C@H]5C[C@H]43 | -30.8%
Cc1cncc(CN2CCC(=C3c4ccc(Cl)cc4CCc4cccnc43)CC2)c1 | 6.98%
NCc1ccccc1Sc1ccccc1CO | -1.2%
O=C(O)c1ccccc1-c1ccc(C(F)(F)F)cc1 | 2.5%
Cn1cncc1[C@@](N)(c1ccc(Cl)cc1)c1ccc2c(c1)c(-c1cccc(Cl)c1)cc(=O)n2C | 6.83%
C=C1/C(=C\C=C2/CCC[C@]3(C)[C@@H]([C@H](C)/C=C/C=C/C(O)(CC)CC)CC[C@@H]23)C[C@@H](O)C[C@@H]1O | 18.1%
Cn1c(=O)c2c(ncn2CCOC(=O)C(C)(C)Oc2ccc(Cl)cc2)n(C)c1=O | 1.04%
O=C(NCCCN1CCOCC1)c1ccc(Cl)cc1 | 2.89%
CC1=C(C)C(=O)C(C(CCCCCC(=O)O)c2ccccc2)=C(C)C1=O (stereo not shown) | 5.99%
N[C@H](C(=O)O)c1ccc(C(=O)O)c(C(=O)O)c1 | 6.99%
CCO[C@H]1O[C@@H]2O[C@@]3(C)CC[C@H]4[C@H](C)CC[C@@H]([C@H]1C)[C@@]24OO3 | -2.61%
CC(C)CC(=O)N[C@H](C(=O)N[C@H](C(=O)N[C@@H](CC(C)C)[C@@H](O)CC(=O)N[C@@H](C)C(=O)N[C@@H](CC(C)C)[C@@H](O)CC(=O)O)C(C)C)C(C)C | -2.09%

Sample 2
Target: Centromere-binding protein 1, full length, N-terminal tag (CBF1, Saccharomyces cerevisiae, UniProt P17106, residues 1-351)
UniProt P17106, sequence (whole entry, looked up): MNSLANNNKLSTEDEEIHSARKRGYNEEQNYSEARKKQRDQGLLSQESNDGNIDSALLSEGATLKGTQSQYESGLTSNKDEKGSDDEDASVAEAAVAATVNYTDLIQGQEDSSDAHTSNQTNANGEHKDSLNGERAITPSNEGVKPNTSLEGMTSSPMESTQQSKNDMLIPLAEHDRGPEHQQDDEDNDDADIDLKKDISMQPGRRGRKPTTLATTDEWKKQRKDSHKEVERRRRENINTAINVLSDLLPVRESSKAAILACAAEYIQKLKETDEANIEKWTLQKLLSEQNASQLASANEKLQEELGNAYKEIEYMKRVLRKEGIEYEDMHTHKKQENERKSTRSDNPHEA
Method: protein-binding microarray
Molecule type: double-stranded DNA, one strand shown
Medium: in vitro
Concentration: 0.8 µM
Notes: whole 60-bp probe, no competitor
Direction: higher = stronger binding
All sequences stand within: … GTCTTGATTCGCTTGACGCTGCTG
Sequence | fluorescence intensity
CCTAACTACTATACAGGTATCACATAGCTTCGTACA | 526 a.u.
GAATTCTTCTTATGTAACCACATGATATGCATATAG | 2880 a.u.
CTATTGTCCGTAGTCATCGTGACTGGTTGACGTTTC | 803 a.u.
GAAAGCAACAACTGTCACGATTGACCTGATGCATAG | 536 a.u.
TGTACGAAGCTATACAACGTGCTTATAGTAGTTAGG | 607 a.u.
GAAATAGGTAGACACCACGTATTGGCGACCCGATAG | 514 a.u.
CCTAACTACTATATCCTCGTGAAATAGCTTCGTACA | 578 a.u.
GAAGTTTACTTCGATCAGCTGTTTAGCTTTGCCTAG | 690 a.u.

Sample 3
Cell line: HEK-293T-ACE2
Concentration: concentration not given
Baseline: vehicle
Compound | cell number [%]
Cc1ccc(-n2nccn2)c(C(=O)N2CCN(c3nc4cc(Cl)ccc4o3)CC[C@H]2C)c1 | 96.5
Cl.N=C(N)NN | 104
[I-].[K+] | 102

Sample 4
Target: PABPC1L2, full length, GST fusion (mouse, UniProt A0ABA7IW68)
Method: RNAcompete
Molecule type: RNA
Medium: in vitro
Concentration: 20 nM
Notes: 7-mer, probes averaged, single round
Baseline: mean of 7-mers
Direction: higher = stronger binding
Target sequence (chain): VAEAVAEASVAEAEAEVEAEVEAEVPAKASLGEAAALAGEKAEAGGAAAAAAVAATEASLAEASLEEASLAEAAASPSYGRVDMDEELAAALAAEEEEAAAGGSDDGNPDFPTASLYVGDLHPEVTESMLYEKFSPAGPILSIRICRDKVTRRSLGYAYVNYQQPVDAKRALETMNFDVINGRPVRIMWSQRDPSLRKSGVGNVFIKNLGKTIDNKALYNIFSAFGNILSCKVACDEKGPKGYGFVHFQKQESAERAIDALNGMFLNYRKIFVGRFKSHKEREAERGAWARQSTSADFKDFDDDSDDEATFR
Sequence | 7-mer Z-score
GUAGACA | 0.193
GUGUUUG | -0.44
UGUGUUU | -0.454
AGGGUAG | 0.425
GGCUAUG | 0.0152
UUGCAGC | -0.271
CUACACC | -0.295
AGUCACG | -0.0428

Sample 5
Target: Interferon regulatory factor 5, full length, phosphomimetic (IRF5, Homo sapiens, UniProt Q13568-2, residues 1-514, K96S/S451D/S453D/S456D/S462D)
Method: protein-binding microarray
Molecule type: double-stranded DNA, one strand shown
Medium: in vitro
Concentration: 250 nM
Notes: 60-bp whole probe
With: salmon DNA 0.4 mg/ml
Baseline: random background probes
Direction: higher = stronger binding
All sequences stand within: GCCTAGCAC … GTCTTGATTCGCTTGACGCTGCTG
Sequence | log fluorescence [z-score]
GACTGTTTCGGACTGGGGACGTGCTAG | 3.97
GACGATCTCAGTCTCGTGACGTGCTAG | -0.223
GACGGTTTCCTTTTCCGGACGTGCTAG | 1.36
GACAGTCTCGGACTGGGGACGTGCTAG | -0.348
GACGAACTAGGGACTGGAGACGTGCTA | -0.548
TCACTTCTGGATCTCAGACTGTGCTAG | -0.00756
GGGTCTCTTGTTCTCTCTGGGTGCTAG | 0.171
TTAGAACTGGGTATCGATTAGTGCTAG | 3.99

Sample 6
Target: Replicase polyprotein 1ab, main protease (rep, Severe acute respiratory syndrome coronavirus 2, UniProt P0DTD1)
Read-out: enzyme activity
Mode: inhibitor
Notes: without DTT
Compound | IC50
C/C=C1/[C@H](O[C@@H]2O[C@H](CO)[C@@H](O)[C@H](O)[C@H]2O)OC=C(C(=O)OC)[C@H]1CC(=O)OCCc1ccc(O)c(O)c1 | 3400 nM
O=C(O)c1ccc(SSc2ccc(C(=O)O)cn2)nc1 | 240 nM
COC(=O)CC[C@H](NC(=O)[C@H](CC(=O)OC)NC(=O)OCc1ccccc1)C(=O)N[C@H](C(=O)N[C@@H](CC(=O)OC)C(=O)CF)C(C)C | 10 nM
